Assay results of several laboratories.
Numbered parts are unrelated; each lists some results of a single study. Positions count from the first letter of the parent shown.

Set 1 — method: RNA Bind-n-Seq; molecule type: RNA; medium: in vitro; concentration: 20 nM; notes: 6-mer, flanks averaged, single round; with: 150 mM KCl; baseline: input library; reading: higher = stronger binding; measurement: 6-mer enrichment (R)
Target: TAR DNA-binding protein 43, full length, His tag (TARDBP, Homo sapiens, UniProt Q13148, residues 1-414)
UAUUUU: 0.731
CGUCCA: 0.65
AUUAAA: 0.6
CCCCAA: 0.666
UUAACC: 0.59
UAUCAG: 0.64
GCGCAC: 0.982

Set 2 — method: protein binding microarray; molecule type: double-stranded DNA, one strand shown; medium: in vitro; concentration: not given; baseline: not given; reading: higher = stronger binding; measurement: E-score
Target: Histone acetyltransferase KAT6A, both winged helices, GST fusion (KAT6A, Homo sapiens, UniProt Q92794, residues 1-181)
Notes: 8-mer, flanks averaged, mean of 2 arrays, mostly near background
Residues (chain): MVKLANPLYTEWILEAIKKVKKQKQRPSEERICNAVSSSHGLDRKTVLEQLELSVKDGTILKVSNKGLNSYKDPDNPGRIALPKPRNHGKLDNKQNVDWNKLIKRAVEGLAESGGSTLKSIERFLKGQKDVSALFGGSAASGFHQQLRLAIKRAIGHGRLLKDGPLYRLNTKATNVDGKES
AACACCGT: 0.217
AGACTCAG: -0.0822
AAGATTCT: -0.13
ACGGCTGC: 0.183
ATTACAAT: -0.0255
CCTGGCGC: 0.194
AGTAGACG: -0.0924
GTTGAAAA: -0.128
GTACCTAC: -0.118
ATGCAGTC: -0.0758
GAGAACCA: -0.163

Set 3 — target: CCNB1, cyclin fold, Cln2 fusion (human); method: yeast growth competition, sequencing; medium: yeast; notes: weak parent motif; baseline: not given; reading: higher = stronger binding; measurement: normalised enrichment score
Parent: CDC25A docking peptide (human); PPHRRRLLFACSP
PPHRRRLAFACSP [L8A]: 0.77
GPHRRRLLFACSP [P1G]: 0.653
PPHRRRLIFACSP [L8I]: 0.556
PPHRRRLLFACDP [S12D]: 0.926
PPHCRRLLFACSP [R4C]: 0.923
PPHRRRLRFACSP [L8R]: 0.173
PPHRRRLLFACSD [P13D]: 1.23
PPHRRRLLFACLP [S12L]: 1.12
PPHRRPLLFACSP [R6P]: -0.678
PPHRFRLLFACSP [R5F]: 0.308
PPHRRRLLFACPP [S12P]: 0.78
PPHDRRLLFACSP [R4D]: 0.223
PPHRRRLLFSCSP [A10S]: 0.546
PGHRRRLLFACSP [P2G]: 0.88

Further values, each from its own experiment
PhoQ, residues 284 288 289 292 302 303 ASSHFY — fold induction (PhoP, residues 12 14 15 18 19 SYFRT (Escherichia coli, UniProt P23836); Sort-seq, refers to: YFP reporter; E. coli; PhoQ-PhoP variant library, with: 10 µM Mg2+; baseline: high Mg2+ state, higher = stronger signaling): 1.07

Repeated from above (set 1):
UUAACC: 0.59
UAUCAG: 0.64
